# Assay results collected from several papers.
# Protocols differ between the studies behind these lines. “And” joins repeats or separate records; there may be more than shown. Numbers after ± are the reported error.
# Sequence of UniProt P32246 (whole entry, looked up): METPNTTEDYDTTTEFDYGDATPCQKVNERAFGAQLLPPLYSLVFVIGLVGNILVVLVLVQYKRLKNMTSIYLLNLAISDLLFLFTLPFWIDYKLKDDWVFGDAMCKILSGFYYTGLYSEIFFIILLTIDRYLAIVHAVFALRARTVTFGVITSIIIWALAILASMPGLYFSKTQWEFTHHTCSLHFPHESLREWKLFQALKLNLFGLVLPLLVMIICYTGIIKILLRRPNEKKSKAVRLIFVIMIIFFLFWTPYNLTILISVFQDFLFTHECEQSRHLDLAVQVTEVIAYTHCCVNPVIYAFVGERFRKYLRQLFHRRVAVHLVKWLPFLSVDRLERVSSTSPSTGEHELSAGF
# Sequence of UniProt Q9UNQ0 (whole entry, looked up): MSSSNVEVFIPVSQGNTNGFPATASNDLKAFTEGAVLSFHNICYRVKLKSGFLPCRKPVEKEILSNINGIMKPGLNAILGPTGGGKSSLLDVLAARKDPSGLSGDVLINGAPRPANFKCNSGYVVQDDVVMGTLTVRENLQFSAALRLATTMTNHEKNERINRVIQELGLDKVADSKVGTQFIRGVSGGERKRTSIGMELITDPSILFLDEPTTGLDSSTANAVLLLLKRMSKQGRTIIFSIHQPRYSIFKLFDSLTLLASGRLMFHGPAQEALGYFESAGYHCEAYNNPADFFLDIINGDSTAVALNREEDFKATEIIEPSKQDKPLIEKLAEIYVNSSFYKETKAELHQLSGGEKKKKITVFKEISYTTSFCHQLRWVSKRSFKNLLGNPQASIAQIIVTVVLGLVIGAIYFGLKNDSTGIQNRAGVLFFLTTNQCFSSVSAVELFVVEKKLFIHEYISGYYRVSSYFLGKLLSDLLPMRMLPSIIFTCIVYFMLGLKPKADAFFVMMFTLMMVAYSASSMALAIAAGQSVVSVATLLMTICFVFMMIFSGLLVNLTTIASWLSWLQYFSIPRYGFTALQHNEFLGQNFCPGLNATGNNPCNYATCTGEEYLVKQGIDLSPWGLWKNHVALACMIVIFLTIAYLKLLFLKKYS
SMILES,tested on,test,system,conditions,scale,measurement,result
O=C1NC2(CC2)COc2ncc(F)cc2[C@H]2COCCN2c2ccn3ncc1c3n2,,,"Sprague-Dawley rat, male, serum","oral, 2.5 mg/kg/day, 4 weeks daily, end of recovery period",,pancreatic amylase activity,2070 ± 208 U/L
Cc1cc(Oc2nc(N3CC[C@@H](c4ccncc4)C3)ncc2F)[nH]n1,ASPC1,cell proliferation,pancreas cancer,,,IC50,43.7 µM
CC[C@H](C)[C@H](NC(=O)[C@H](CO)NC(=O)[C@H](Cc1ccc(O)cc1)NC(=O)[C@H](Cc1ccc(O)cc1)NC(=O)[C@H](CC(N)=O)NC(=O)CNC(=O)[C@H](CO)NC(=O)[C@H](Cc1ccc(O)cc1)NC(=O)[C@H](CO)NC(=O)[C@H](CO)NC(=O)[C@H](CC(N)=O)NC(=O)COCCOCCNC(=O)CN1CCN(CC(=O)O)CCN(CC(=O)O)CCN(CC(=O)O)CC1)C(=O)N[C@@H](CC(C)C)C(N)=O [copper-64 labelled],,dynamic PET,"tamoxifen-induced PDAC mouse model, pancreas","1.4 min, CLDN4-expressing tumours",,maximum pancreas uptake,24.6 %IA/cc
CC[C@H](C)[C@H](NC(=O)[C@H](CCCCN)NC(=O)CNC(=O)[C@H](CC(C)C)NC(=O)[C@H](Cc1ccccc1)NC(=O)[C@H](CCCCN)NC(=O)[C@H](CO)NC(=O)[C@H](Cc1ccccc1)NC(=O)[C@H](Cc1c[nH]c2ccccc12)NC(=O)[C@H](CCC(N)=O)NC(=O)[C@@H](NC(=O)[C@H](Cc1ccccc1)NC(=O)CCCCCNC(=O)CN1CCN(CC(=O)O)CCN(CC(=O)O)CCN(CC(=O)O)CC1)C(C)C)C(=O)N[C@@H](CCC(=O)O)C(=O)N1CCC[C@H]1C(=O)N[C@@H](CC(=O)O)C(=O)N[C@H](C(=O)N[C@@H](CO)C(=O)N[C@@H](CCC(N)=O)C(=O)N[C@H](C(=O)N[C@@H](CCC(N)=O)C(=O)N[C@@H](CC(=O)O)C(=O)N1CCC[C@H]1C(=O)N[C@@H](CC(N)=O)C(=O)N[C@@H](CC(=O)O)C(=O)N[C@@H](CCC(N)=O)C(=O)N[C@@H](Cc1ccc(O)cc1)C(=O)N[C@@H](CCC(=O)O)C(=O)N1CCC[C@H]1C(=O)N[C@@H](Cc1ccccc1)C(=O)O)C(C)C)C(C)C [copper-64 labelled],,dynamic PET,"mouse both sexes, CT26 tumour, untreated, tumour","intravenous, 100 µCi/mouse, 390 s",,SUVmean,0.75 SUV
CC(=O)NCCCC[C@@H]1NC(=O)[C@H](Cc2c[nH]c3c(C)cccc23)NC(=O)[C@H]([C@@H](C)O)NC(=O)[C@H](CC(N)=O)NC(=O)[C@@H](NC(C)=O)C(C)(C)SSC(C)(C)[C@@H](C(=O)N[C@@H](Cc2ccc(OCCN)cc2)C(=O)N[C@@H](Cc2ccc3ccccc3c2)C(=O)NC2(C(=O)N[C@@H](CCC(=O)O)C(=O)N[C@@H](CC(N)=O)C(=O)N[C@@H](Cc3cccnc3)C(=O)N(C)CC(N)=O)CCOCC2)NC1=O,"ABCG2 (Homo sapiens, UniProt Q9UNQ0)","transport, inhibitor",LLC-PK1 cells,"concentration not given, added: [3H]prazosin",,inhibition,no inhibition
CC(C)(C)C(=O)OCOP(=O)(OCOC(=O)C(C)(C)C)C1CCCN(O)C1=O (stereo not drawn),U-251,,,,,GI50,0.341 µM
COc1ccc2c3c1O[C@H]1[C@H](O)CC[C@@]4(O)[C@@H](C2)N(C)CC[C@]314,,,octanol/buffer,"1 h, pH 7.4",,logD,-0.94
Cc1ccc(N(C)C2CN(C)C2)cc1C(=O)N[C@H](C)c1cc(-c2cnn(C)c2)nc2ccccc12,Vero E6,,,15.62 µM,,viability,89.7% and 91% and 87.7%
CS(C)(=O)=Nc1ccc(-c2ccc(-c3nc4cc(O[C@@H]5CO[C@H]6[C@@H]5OC[C@H]6O)[nH]c4cc3F)cc2)cc1,"CCR1 (Homo sapiens, UniProt P32246)","calcium signal, antagonist",,10 µM,,inhibition,26%
Nc1c2c(nc3sc4c(c13)CCCCC4)CCCC2,Ba/F3,cytotoxicity,,3 days,,IC50,> 1.25 µM
Cc1ccc(OCCN(C)C)cc1C(=O)N[C@H](C)c1cc(-c2ccc(C(F)(F)F)s2)nc2ccccc12,Vero E6,,,31.25 µM,,viability,0% and 1.69%
COc1ccccc1-c1n[nH]c2nc(NC3CCN(C(=O)Cc4ccc(F)cc4F)CC3)ncc12,,"bead binding, competition bead pull-down, measured: LMJF.02.0460",Leishmania donovani axenic amastigote extract,10 µM,relative to: vehicle,relative abundance,0.86
Cc1nc2cccc(OCC(C)(C)C(=O)NC(C)C)c2c(N)c1C(=O)[O-].[Na+],Salmonella typhimurium,Ames plate incorporation,TA1537,"0.13 mg/plate, added: with rat liver S9",,revertant colonies,16 ± 4 colonies/plate
COc1ccc2c3c1O[C@H]1[C@@H](O)C=C[C@H]4[C@@H](C2)N(CCc2ccccc2)CC[C@@]341,,,octanol/phosphate buffer,"1 h, pH 5.74, ionic strength 0.15 M",,logD,1.05
Cc1ccc(OCCN(C)C)cc1C(=O)N[C@H](C)c1cc(-c2ccn(C)n2)nc2ccccc12,Vero E6,,,15.62 µM,,viability,86.1% and 95.5% and 80.4%
